# Assay results from different studies.
# Protocols differ between the studies behind these lines. “And” joins repeats or separate records; there may be more than shown. ± marks the error that the study gave.
# Tln1: Tln1 309-405 (Mus musculus, UniProt P26039)
# Sequence of UniProt P26039 (whole entry, looked up): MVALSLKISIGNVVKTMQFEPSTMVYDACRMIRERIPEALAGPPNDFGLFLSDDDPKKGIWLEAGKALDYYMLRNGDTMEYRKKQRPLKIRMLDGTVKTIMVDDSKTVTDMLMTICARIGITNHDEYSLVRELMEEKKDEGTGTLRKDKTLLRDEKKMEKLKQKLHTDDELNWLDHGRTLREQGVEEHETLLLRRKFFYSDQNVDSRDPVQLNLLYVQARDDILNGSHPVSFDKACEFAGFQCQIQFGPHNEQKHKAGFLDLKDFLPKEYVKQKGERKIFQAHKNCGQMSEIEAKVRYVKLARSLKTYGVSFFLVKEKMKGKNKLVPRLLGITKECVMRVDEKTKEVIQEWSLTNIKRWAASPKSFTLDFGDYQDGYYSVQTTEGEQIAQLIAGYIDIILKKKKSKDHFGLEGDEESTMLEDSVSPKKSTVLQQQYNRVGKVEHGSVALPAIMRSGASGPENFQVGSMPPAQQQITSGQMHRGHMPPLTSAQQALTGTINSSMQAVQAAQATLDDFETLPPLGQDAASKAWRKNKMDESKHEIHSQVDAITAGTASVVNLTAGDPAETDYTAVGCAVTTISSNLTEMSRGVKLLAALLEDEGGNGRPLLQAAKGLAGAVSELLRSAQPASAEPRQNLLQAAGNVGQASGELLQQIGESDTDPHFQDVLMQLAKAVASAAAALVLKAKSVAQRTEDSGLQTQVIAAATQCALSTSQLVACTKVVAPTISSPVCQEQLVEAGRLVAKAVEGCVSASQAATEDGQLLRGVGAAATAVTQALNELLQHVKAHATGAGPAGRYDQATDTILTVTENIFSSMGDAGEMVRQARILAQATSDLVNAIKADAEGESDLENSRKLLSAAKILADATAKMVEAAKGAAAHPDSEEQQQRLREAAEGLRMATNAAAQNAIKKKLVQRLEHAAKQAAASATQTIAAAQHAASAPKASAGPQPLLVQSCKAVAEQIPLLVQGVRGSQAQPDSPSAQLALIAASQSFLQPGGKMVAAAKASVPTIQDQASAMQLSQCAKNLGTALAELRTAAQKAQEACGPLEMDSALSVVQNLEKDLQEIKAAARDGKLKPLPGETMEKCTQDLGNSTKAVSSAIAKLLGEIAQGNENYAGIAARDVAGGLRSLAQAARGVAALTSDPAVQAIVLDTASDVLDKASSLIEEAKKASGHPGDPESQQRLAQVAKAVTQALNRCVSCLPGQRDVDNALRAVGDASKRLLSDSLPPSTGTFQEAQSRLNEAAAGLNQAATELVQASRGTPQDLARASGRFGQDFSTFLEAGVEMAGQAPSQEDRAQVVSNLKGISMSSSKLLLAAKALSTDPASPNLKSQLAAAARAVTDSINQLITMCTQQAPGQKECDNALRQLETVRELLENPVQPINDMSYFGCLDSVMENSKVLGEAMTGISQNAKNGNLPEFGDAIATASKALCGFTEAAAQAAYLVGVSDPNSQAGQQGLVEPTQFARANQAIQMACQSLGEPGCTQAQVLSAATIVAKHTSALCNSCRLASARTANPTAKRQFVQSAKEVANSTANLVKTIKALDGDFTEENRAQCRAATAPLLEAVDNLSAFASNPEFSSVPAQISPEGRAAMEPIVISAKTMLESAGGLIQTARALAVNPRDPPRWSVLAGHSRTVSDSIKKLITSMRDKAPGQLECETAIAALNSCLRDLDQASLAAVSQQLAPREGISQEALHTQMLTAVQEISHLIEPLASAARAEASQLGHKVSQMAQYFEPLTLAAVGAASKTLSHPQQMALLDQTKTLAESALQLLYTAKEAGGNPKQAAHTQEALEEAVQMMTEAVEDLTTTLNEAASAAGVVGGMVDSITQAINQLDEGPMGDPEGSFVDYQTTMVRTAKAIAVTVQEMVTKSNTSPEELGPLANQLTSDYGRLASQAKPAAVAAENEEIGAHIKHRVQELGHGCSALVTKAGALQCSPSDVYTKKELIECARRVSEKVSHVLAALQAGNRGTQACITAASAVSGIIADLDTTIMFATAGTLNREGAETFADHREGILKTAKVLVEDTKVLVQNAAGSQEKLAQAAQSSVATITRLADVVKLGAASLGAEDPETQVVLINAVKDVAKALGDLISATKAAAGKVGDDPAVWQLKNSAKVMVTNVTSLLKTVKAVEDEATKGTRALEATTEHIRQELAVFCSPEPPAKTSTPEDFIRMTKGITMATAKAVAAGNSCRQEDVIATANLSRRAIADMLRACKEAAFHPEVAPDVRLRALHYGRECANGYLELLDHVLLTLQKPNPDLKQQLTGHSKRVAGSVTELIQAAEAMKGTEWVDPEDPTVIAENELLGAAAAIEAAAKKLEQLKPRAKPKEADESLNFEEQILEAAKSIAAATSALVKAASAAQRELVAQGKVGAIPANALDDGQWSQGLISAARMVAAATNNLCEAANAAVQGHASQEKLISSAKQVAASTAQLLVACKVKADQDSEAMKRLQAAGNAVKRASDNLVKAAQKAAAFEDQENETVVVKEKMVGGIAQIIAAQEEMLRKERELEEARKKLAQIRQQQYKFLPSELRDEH
# CDC48A: CDC48A 1-463 (Arabidopsis thaliana, UniProt P54609)
# Sequence of UniProt P54609 (whole entry, looked up): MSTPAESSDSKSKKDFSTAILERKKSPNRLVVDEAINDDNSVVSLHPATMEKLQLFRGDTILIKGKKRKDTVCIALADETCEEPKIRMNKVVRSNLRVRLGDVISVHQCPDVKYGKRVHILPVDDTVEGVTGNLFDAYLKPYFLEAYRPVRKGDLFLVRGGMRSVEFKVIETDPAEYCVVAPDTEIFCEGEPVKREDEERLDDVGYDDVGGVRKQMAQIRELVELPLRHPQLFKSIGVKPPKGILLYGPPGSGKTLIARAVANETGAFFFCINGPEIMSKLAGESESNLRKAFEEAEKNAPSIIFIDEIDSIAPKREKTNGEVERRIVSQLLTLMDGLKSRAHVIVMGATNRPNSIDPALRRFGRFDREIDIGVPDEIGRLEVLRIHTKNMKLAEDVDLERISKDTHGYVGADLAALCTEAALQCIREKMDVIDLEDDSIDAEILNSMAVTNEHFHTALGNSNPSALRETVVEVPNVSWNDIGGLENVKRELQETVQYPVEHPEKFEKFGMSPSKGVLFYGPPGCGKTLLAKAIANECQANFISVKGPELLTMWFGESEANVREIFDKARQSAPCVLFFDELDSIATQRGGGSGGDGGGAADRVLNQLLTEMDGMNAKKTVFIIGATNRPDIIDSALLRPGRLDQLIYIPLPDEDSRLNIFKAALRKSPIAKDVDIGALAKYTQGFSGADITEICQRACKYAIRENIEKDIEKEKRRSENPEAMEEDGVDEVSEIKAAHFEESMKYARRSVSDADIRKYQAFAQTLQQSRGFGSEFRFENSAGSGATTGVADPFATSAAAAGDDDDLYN
# B1: USP3 ZnF-UBD 1-131 (Homo sapiens); chain MECPHLSSSVCIAPDSAKFPNGSPSSWCCSVCRSNKSPWVCLTCSSVHCGRYVNGHAKKHYEDAQVPLTNHKKSEKQDKVQHTVCMDCSSYSTYCYRCDDFVVNDTKLGLVQKVREHLQNLENSAFTADRH
# B2: BRAF kinase 442-724 V600E (Homo sapiens, UniProt P15056); sequence looked up; chain GRRDSSDDWEIPDGQITVGQRIGSGSFGTVYKGKWHGDVAVKMLNVTAPTPQQLQAFKNEVGVLRKTRHVNILLFMGYSTKPQLAIVTQWCEGSSLYHHLHIIETKFEMIKLIDIARQTAQGMDYLHAKSIIHRDLKSNNIFLHEDLTVKIGDFGLATEKSRWSGSHQFEQLSGSILWMAPEVIRMQDKNPYSFQSDVYAFGIVLYELMTGQLPYSNINNRDQIIFMVGRGYLSPDLSKVRSNCPKAMKRLMAECLKKKRDERPLFPQILASIELLARSLPKI
# B3: PIK3R1 1-79 (Homo sapiens, UniProt P27986); chain MSAEGYQYRALYDYKKEREEDIDLHLGDILTVNKGSLVALGFSDGQEARPEEIGWLNGYNETTGERGDFPGTYVEYIGR
# B4: CFH 1108-1231 R1215Q (Homo sapiens, UniProt P08603); sequence looked up; chain KCGPPPPIDNGDITSFPLSVYAPASSVEYQCQNLYQLEGNKRITCRNGQWSEPPKCLHPCVISREIMENYNIALRWTAKQKLYSRTGESVEFVCKRGYRLSSRSHTLQTTCWDGKLEYPTCAKR
# B5: Cacna1c 1647-1777 (Mus musculus, UniProt Q01815); sequence looked up; chain NALSLQAGLRTLHDIGPEIRRAISGDLTAEEELDKAMKEAVSAASEDDIFRRAGGLFGNHVTYYQSDSRGNFPQTFATQRPLHINKTGNNQADTESPSHEKLVDSTFTPSSYSSTGSNANINNANNTALGR
# B6: CFH domains 1108-1231 L1189R (Homo sapiens, UniProt P08603); sequence looked up; chain KCGPPPPIDNGDITSFPLSVYAPASSVEYQCQNLYQLEGNKRITCRNGQWSEPPKCLHPCVISREIMENYNIALRWTAKQKRYSRTGESVEFVCKRGYRLSSRSHTLRTTCWDGKLEYPTCAKR
# B7: ANGPT1 283-498 A451D (Homo sapiens, UniProt Q15389); chain FRDCADVYQAGFNKSGIYTIYINNMPEPKKVFCNMDVNGGGWTVIQHREDGSLDFQRGWKEYKMGFGNPSGEYWLGNEFIFAITSQRQYMLRIELMDWEGNRAYSQYDRFHIGNEKQNYRLYLKGHTGTAGKQSSLILHGADFSTKDADNDNCMCKCALMLTGGWWFDDCGPSNLNGMFYTAGQNHGKLNGIKWHYFKGPSYSLRSTTMMIRPLDF
# B8: PUX3 (Arabidopsis thaliana, UniProt Q9SUG6); chain MSSKDKKLSKPTSGRTGGIRTLSDLNRRSEPDSDSDSDGPQEYFTGGEKSGMLVQDPTKEPKHDDVDEIFNQARQLGAVEGPLEHPSSSRSFTGTGRLLSGESVPTALQQPEPVIHNIIFWSNGFTVDDGPLRKLDDPENASFLDSIRKSECPKELEPVDKRAPVHVNLMRRDEKCPEKEKLKVSFQGVGRTLGGASSSTASSQSNLTDVAAVQSPLQSLVVDETLPSTSIQLRLADGTRMVAKFNNHHTVNDIRGFIEFSRPGNPNNYTLQVMGFPPKPLTDPSQTIEQAGLASSVVIQKF
# B9: TEPSIN (Homo sapiens, UniProt Q96N21); chain MAAAPPLRDRLSFLHRLPILLKGTSDDDVPCPGYLFEEIAKISHESPGSSQCLLEYLLSRLHSSSGHGKLKVLKILLYLCSHGSSFFLLILKRNSAFIQEAAAFAGPPDPLHGNSLYQKVRAAAQDLGSTLFSDTVLPLAPSQPLGTPPATGMGSQARPHSTLQGFGYSKEHGRTAVRHQPGQAGGGWDELDSGPSSQNSSQNSDLSRVSDSGSHSGSDSHSGASREPGDLAERVEVVALSDCQQELSLVRTVTRGPRAFLSREEAQHFIKACGLLNCEAVLQLLTCHLRGTSECTQLRALCAIASLGSSDLLPQEHILLRTRPWLQELSMGSPGPVTNKATKILRHFEASCGQLSPARGTSAEPGPTAALPGPSDLLTDAVPLPGSQVFLQPLSSTPVSSRSPAPSSGMPSSPVPTPPPDASPIPAPGDPSEAEARLAESRRWRPERIPGGTDSPKRGPSSCAWSRDSLFAGMELVACPRLVGAGAAAGESCPDAPRAPQTSSQRTAAKEPPGSEPSAFAFLNA
# B10: PUX4 (Arabidopsis thaliana, UniProt Q8RWU7); chain MSSKDKKPSKPSSSRGGIRTLSDLNRRSGPDSDSDSDGPQEYYTGGEKSGMLVQDPSKKDDVDEIFNQARQLGAVEGPLEPPPSSRSFTGTGRLLSGENVPTGNQQPEPVVHNIVFWSNGFTIDDGPLRKLDDPENASFLESIRKSECPKELEPADRRAPVHVNLMRKEEKCPERQKRRVSFQGVGRTLGGSNEGSGSSSPVAPDSAPIPIQTEPAPSQSLVIDETVPTTSIQLRLADGTRLVAKFNHHHTVNDIRGFIDSSRPGASLNYQLQTMGFPPKPLTDLTQTIEEAGLANSVVLQKF
# Sequence of UniProt P01024 (whole entry, looked up): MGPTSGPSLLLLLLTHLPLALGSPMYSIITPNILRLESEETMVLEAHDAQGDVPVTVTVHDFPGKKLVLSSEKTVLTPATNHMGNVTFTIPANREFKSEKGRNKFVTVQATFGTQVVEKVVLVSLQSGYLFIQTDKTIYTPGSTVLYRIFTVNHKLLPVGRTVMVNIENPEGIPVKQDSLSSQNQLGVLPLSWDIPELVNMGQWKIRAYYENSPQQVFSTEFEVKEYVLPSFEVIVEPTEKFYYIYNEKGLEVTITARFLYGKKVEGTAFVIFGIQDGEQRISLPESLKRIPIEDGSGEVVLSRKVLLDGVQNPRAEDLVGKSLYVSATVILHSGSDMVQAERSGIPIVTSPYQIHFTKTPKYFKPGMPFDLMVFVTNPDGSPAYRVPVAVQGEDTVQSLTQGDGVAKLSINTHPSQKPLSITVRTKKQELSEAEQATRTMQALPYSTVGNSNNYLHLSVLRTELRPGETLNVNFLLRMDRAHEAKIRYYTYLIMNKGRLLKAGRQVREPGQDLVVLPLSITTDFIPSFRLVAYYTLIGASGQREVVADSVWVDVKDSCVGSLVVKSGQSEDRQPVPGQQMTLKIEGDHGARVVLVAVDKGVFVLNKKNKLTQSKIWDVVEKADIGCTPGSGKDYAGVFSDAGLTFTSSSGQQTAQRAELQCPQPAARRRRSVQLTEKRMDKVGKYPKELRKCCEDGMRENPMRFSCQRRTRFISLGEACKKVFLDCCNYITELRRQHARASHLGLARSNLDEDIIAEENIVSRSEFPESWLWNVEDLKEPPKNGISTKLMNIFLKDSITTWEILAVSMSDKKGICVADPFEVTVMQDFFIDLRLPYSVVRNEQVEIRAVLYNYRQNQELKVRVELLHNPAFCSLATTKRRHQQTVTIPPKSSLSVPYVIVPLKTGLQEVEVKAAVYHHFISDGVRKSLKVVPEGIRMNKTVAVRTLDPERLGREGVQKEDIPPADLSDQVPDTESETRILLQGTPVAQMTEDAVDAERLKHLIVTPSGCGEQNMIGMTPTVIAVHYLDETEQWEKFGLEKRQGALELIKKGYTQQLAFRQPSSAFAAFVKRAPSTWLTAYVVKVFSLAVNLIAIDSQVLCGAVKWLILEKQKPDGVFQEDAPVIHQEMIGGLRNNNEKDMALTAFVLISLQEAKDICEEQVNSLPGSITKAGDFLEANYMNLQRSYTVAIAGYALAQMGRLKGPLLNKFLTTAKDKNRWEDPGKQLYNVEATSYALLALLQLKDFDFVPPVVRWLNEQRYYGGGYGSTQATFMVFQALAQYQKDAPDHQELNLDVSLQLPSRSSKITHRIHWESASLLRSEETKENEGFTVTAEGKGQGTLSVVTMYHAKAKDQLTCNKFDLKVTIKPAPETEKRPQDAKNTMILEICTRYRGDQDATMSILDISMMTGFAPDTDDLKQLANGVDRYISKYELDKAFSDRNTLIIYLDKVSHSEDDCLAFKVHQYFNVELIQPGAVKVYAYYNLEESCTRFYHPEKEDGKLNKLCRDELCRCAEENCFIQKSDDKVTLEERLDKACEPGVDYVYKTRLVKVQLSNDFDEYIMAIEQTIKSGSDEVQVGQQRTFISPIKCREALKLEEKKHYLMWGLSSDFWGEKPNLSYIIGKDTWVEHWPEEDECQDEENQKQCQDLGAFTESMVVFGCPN
Molecule,tested on,test,test system,setting,quantity,value
"PCSK9 (Homo sapiens, UniProt Q8NBP7)","evolocumab IgG, PBS-stressed 28 d, Asn deamidation, heavy chain CDR2 Asn55 and Fc",SPR,,,Kd,0.0016 µM
B1 (USP3 ZnF-UBD 1-131),UBB fragment (Homo sapiens),SPR,,,Kd,> 1000 µM
"petF ferredoxin (Synechocystis sp. PCC 6803, UniProt P27320)",narB M149A (Synechococcus sp. PCC 7942),UV-visible difference titration,,,Kd,6.8 ± 1.3 µM
B2 (BRAF kinase 442-724 V600E),"MAP2K1 (Homo sapiens, UniProt Q02750)",BLI,,,Kd,0.0564 ± 0.00554 µM
B3 (PIK3R1 1-79),"PIK3R1 80-724 (Homo sapiens, UniProt P27986)",ITC,,,Kd,22.3 ± 2.5 µM
B4 (CFH 1108-1231 R1215Q),"C3 996-1303 (Homo sapiens, UniProt P01024)",SPR,,,Kd,13.1 ± 0.6 µM
GRGRGRGRGRGRGRGRGRGRGRGRGRGRGRGRGRGRGRGR ((GR)20 20 repeats; TAMRA label N-terminal),"TNPO1 W460A/W730A (Homo sapiens, UniProt Q92973-2)",fluorescence polarisation,peptide,,Kd,0.0471 ± 0.0041 µM
LVGWHRSYYTWN (LVG-TR3 peptide),"CD274 19-238 (Homo sapiens, UniProt Q9NZQ7)",SPR,peptide,,Kd,1.98 µM
"H2AX/H2B/H3/H4 nucleosome core particle, pS139 (Homo sapiens)","MDC1 BRCT 1891-2089 (Homo sapiens, UniProt Q14676)",MST,,,Kd,0.0332 ± 0.0013 µM
Palld fragment (Mus musculus) (sequence not shown),"ACTA1 F-actin (Oryctolagus cuniculus, UniProt P68135)",co-sedimentation,,,Kd,3.4 ± 0.7 µM
Peginesatide,UT7/EPO,"phosphorylation, agonist, refers to: phospho-p38",,10 min,EC50,1.51 nM
"ENSSEEEFFDAHEGFSDSDE (Pitpnm1 343-362 (Mus musculus, UniProt O35954); sequence looked up)","Vapb 1-125 K43L/K45L (Mus musculus, UniProt Q9QY76)",ITC,,,Kd,0.87 µM
"ACRGDGWCG (cyclic RGD peptide; disulfide-cyclized, aminocaproic acid, FITC)","ITGAV/ITGB5 ectodomain, soluble, clasped",fluorescence polarisation,peptide,,Kd,0.0052 µM
B5 (Cacna1c 1647-1777),"Jph2 1-440 S165K (Mus musculus, UniProt Q9ET78)",ITC,,,Kd,5.17 µM
"entB, 2,3-dihydroxybenzoyl thioester on PCP (Escherichia coli, UniProt P0ADI4)","EntF holo, phosphopantetheine (Escherichia coli, UniProt P11454)",SPR,,,Kd,0.416 µM
GCVRLHESCLGQQVPCCDPAATCYCSGRGDNDLVCYCR (designed binder),ITGAV/ITGB3 U87MG cells (Homo sapiens),flow cytometry,"designed binder, U87MG",,Kd,0.00078 µM
GSYPRPRPRPRPRPRPRPRPRPRPRPRPRPRPRPRPRPRPRPRPRPRPR (poly-PR (PR)23),"NPM1 (Homo sapiens, UniProt P06748)",fluorescence polarisation,peptide,apparent,Kd,0.0504 ± 0.0075 µM
B6 (CFH domains 1108-1231 L1189R),"C3 C3dg 955-1303 (Homo sapiens, UniProt P01024)",SPR,,,Kd,1.3 ± 0.1 µM
"F9 heavy and light chains, activated (UniProt P00740)","F8 activated, B-domain-deleted (Homo sapiens)","FXa generation, factor Xa generation rate",,with: FX,Kd,0.0014 µM
"LPDTDDRHRIEEKRKRTYETFKSAMKKSPFNGP (Rela 289-321 I312A (Mus musculus, UniProt Q04207); sequence looked up)","NFKBIA 67-206 (Homo sapiens, UniProt P25963)",ITC,peptide,,Kd,0.54 ± 0.002 µM
B7 (ANGPT1 283-498 A451D),"TEK 23-748 (Homo sapiens, UniProt Q02763)",SPR,,,Kd,0.279 µM
colistin,Salmonella enterica serovar Uganda,broth microdilution,clinical isolate RKI-No 206/14,,MIC,≤ 0.5 mg/L
FGB dimer (Homo sapiens),CDH2 EC5 440-551 (Homo sapiens),SPR,,"Langmuir fit, with: CaCl2",Kd,0.0303 µM
"KLLMIIHDRREFAKFEKEKMNAKWDTQENPIYKSPINNFKNPNYGRKAGL (ITGB1 752-801 (Homo sapiens, UniProt P05556-5); sequence looked up)",Tln1,NMR titration,,,Kd,95 µM
GSGESVNWKCCYSLTLQE (designed peptide),"ERBB2 23-652 (Homo sapiens, UniProt P04626)",ELISA,peptide,,Kd,2.7 ± 0.6 µM
FIYWPWADLGVPDCG (macrocyclic peptide; cyclic),NRAS fragment (Homo sapiens),SPR,peptide,,Kd,0.09 µM and 0.06 µM and 0.1 µM
SCN2A fragment Y1919A (Homo sapiens) (sequence not shown),"CALM1 (Homo sapiens, UniProt P0DP23)",fluorescence titration,,"pH 7.4, 22 °C, with: calcium",Kd,0.135 µM
ENAH EVH1 domain (Homo sapiens),KANK4 peptide (Homo sapiens),BLI,,,Kd,> 150 µM
"KLLMIIHDRREFAKFEEERMNAKWDTGENPIYKSAVTTVVNPKYEGK (ITGB1 752-798 K768E/K770R (Homo sapiens, UniProt P05556-1); sequence looked up)",Tln1,NMR titration,,,Kd,253 µM
B8 (PUX3),CDC48A,ITC,,25 °C,Kd,3.4 ± 0.5 µM
B9 (TEPSIN),MAP1LC3B fragment (Homo sapiens),BLI,,,Kd,1.71 µM and 0.9 µM and 0.93 µM and 1.18 µM
IL2 fragment (Homo sapiens),IL2RA ectodomain 1-217 (Homo sapiens),BLI,,,Kd,0.0032 µM and 0.0073 µM
B10 (PUX4),CDC48A,ITC,,25 °C,Kd,3.6 ± 0.7 µM
"CXCL8, Alexa Fluor 647 label (Homo sapiens)","CXCR1 (Homo sapiens, UniProt P25024)",flow cytometry,HEK293A.CXCR1,,Kd,0.367 µM

# Some of these lines once more:
Molecule,tested on,test,test system,setting,quantity,value
FIYWPWADLGVPDCG (macrocyclic peptide; cyclic),NRAS fragment (Homo sapiens),SPR,peptide,,Kd,0.09 µM and 0.06 µM and 0.1 µM
SCN2A fragment Y1919A (Homo sapiens) (sequence not shown),"CALM1 (Homo sapiens, UniProt P0DP23)",fluorescence titration,,"pH 7.4, 22 °C, with: calcium",Kd,0.135 µM
ENAH EVH1 domain (Homo sapiens),KANK4 peptide (Homo sapiens),BLI,,,Kd,> 150 µM
